Measured values of several laboratories.
Protocols differ between the studies behind these lines. Several values in a cell are separate wells, animals, samples, runs or records. ± marks the error that the study gave.

Compound | target | assay | system | conditions | how to read | endpoint | result
O=C(Nc1cccnn1)N1CCC(=Cc2cccc(Oc3ccc(C(F)(F)F)cn3)c2)CC1 | Alpha-2-HS-glycoprotein (Ahsg, Rattus norvegicus, UniProt P24090) | competitive ABPP with azido-FP probe | rat brain soluble fraction | 0.1 µM, unit not given | baseline: DMSO | probe labelling | -1.1
COc1cc(O)cc(/C=C/c2ccc(O)cc2)c1 | O-methyltransferase (Sorghum bicolor, UniProt A0A1B6PFV1) | biolayer interferometry |  | added: saturating SAH |  | cooperativity factor σ | 14.7
O=C(O)COP(=O)(O)O | TPI1 (Saccharomyces cerevisiae, UniProt P00942, S211G/Y208T) | enzyme activity, competitive inhibitor, GPDH/NADH-coupled |  | pH 8.3, 25 °C, ionic strength 0.1 NaCl, added: glyceraldehyde 3-phosphate substrate | baseline: mutant over wild type | Ki ratio | 9
CC[C@H](C)[C@@H]1NC(=O)[C@H](Cc2c[nH]c3ccccc23)NC(=O)[C@H](Cc2ccc(O)cc2)NC(=O)CSC[C@@H](C(N)=O)NC(=O)[C@H]([C@@H](C)O)NC(=O)[C@H](CO)NC(=O)[C@H](C(C)C)NC(=O)[C@H](Cc2ccc(O)cc2)NC(=O)[C@H](CCCNC(=N)N)NC(=O)[C@H](Cc2ccc(O)cc2)NC(=O)[C@H]([C@@H](C)O)NC(=O)[C@H]([C@@H](C)O)NC(=O)[C@H](Cc2c[nH]c3ccccc23)NC(=O)[C@H](CO)NC(=O)[C@H](CC(N)=O)NC(=O)[C@H](CO)NC1=O | Vacuolar protein sorting-associated protein 26A/Vacuolar protein sorting-associated protein 35, Vps35 residues 1–224 (Homo sapiens, UniProt O75436+Q96QK1) | ITC |  | 25 °C |  | ΔH | -7 ± 1.7 kcal/mol
COc1cc(Nc2ncc(F)c(Nc3ccc4c(n3)NC(=O)C(C)(C)O4)n2)cc(OC)c1OC | CSNK1E (Homo sapiens, UniProt P49674) | KINOMEscan |  | 10 µM |  | inhibition | 0%
CN(C(=O)n1cnc(-c2ccc[n+]([O-])c2)c1)C1CCCCC1 | Monoacylglycerol lipase ABHD6 (Abhd6, Rattus norvegicus, UniProt Q5XI64) | probe labelling, inhibitor, competitive ABPP | rat brain membrane fraction | 100 µM, added: azido-FP probe |  | inhibition | 97.5%
CN1CCN(c2cc(-c3ccncc3)c(-c3ccc4ccccc4c3)nn2)CC1 | DRD4 (Homo sapiens, UniProt P21917) | agonist, FLIPR |  | 12.5 µM |  | activation | -1.7%
CN(C(=O)n1cnc(-c2ccc[n+]([O-])c2)c1)C1CCCCC1 | Faah (Mus musculus, UniProt O08914) | enzyme activity, inhibitor, ex vivo | rat, brain | oral, 8 h |  | ED50 | 13.5 mg/kg
O=C(Nc1nncs1)C(F)(F)Cl | MAPK8 (Homo sapiens, UniProt P45983) | binding, isothermal titration calorimetry |  |  |  | ligand efficiency | 0.44
C[C@H]1CN(c2n[nH]c3nc(N[C@H]4CC[C@H](NS(=O)(=O)CCC(F)(F)F)CC4)ncc23)CCO1 | CBR1 (Homo sapiens, UniProt P16152) | inhibitor, Kinobeads competition profiling |  | 0.16 µM | baseline: vehicle | relative abundance | 1.03
C/C=C1/C(=O)C[C@H]2[C@@H]3CCC4=CC(=O)CC[C@]4(C)[C@H]3CC[C@]12C | NR1H3 (Homo sapiens, UniProt Q13133) | coactivator recruitment |  |  |  | IC50 | inactive
Nc1ncnc2c1ncn2[C@@H]1O[C@H](COP(=O)(O)OP(=O)(O)O)[C@@H](O)[C@H]1O | Cell cycle histidine kinase CckA, G318A; cytoplasmic region (Caulobacter vibrioides, UniProt Q9X688, G318A) | binding, ITC |  | added: without c-di-GMP |  | ΔH | -0.49 ± 0.0738 kcal/mol
O=C(c1ccc(Cl)cc1)N1CCN2C(=O)N(OC(=O)N3CCOc4ccccc43)C(=O)C2C1 (centres unmarked) | PPT2 (Homo sapiens, UniProt Q9UMR5) | enzyme activity, inhibitor, MS-based ABPP | SW-620 in situ | 10 µM, 2 h, 37 °C | baseline: compound over DMSO, lower = stronger inhibition | median ratio | 1.08
CC1(C)S[C@@H]2[C@H](/N=C/N3CCCCCC3)C(=O)N2[C@H]1C(=O)O | Penicillin-binding protein 2X (Streptococcus pneumoniae R6, UniProt P59676) | inhibitor | Streptococcus pneumoniae |  |  | kinact/KI | 410 ± 58 M⁻¹ s⁻¹
O=C(O)Cc1c[nH]cn1 | SLC6A6 (Homo sapiens, UniProt P31641, Y138A) | binding, microscale thermophoresis |  | 46.3 nM, fitted curve | higher = more binding | fraction bound | 0.000268
CN1CCCC(=O)C1 | spuC (Halomonas elongata, UniProt E1V913) | substrate |  |  |  | Km | 16 ± 2 mM
[2H]c1c([2H])c([C@]2([2H])CCCN2C(=O)C(C)(C)Oc2ccc3cn[nH]c3c2)c([2H])c([2H])c1C([2H])([2H])[2H] | EGFR (Homo sapiens, UniProt P00533) | KINOMEscan |  | 1 µM | baseline: DMSO control | remaining binding | 86%
CCCCCCCCCC(=O)CC(=O)N[C@H]1CCOC1=O | qscR (Pseudomonas aeruginosa, UniProt G3XD77) | ligand, differential scanning fluorimetry |  | ligand complex |  | melting temperature | 57.1 °C
CC(C)C[C@@H]1NC(=O)[C@H](C(C)C)NC(=O)CNC(=O)[C@H](CC(N)=O)NC(=O)[C@@H]2CCCN2C(=O)[C@H](Cc2ccc(O)cc2)NC(=O)[C@H](CCCNC(=N)N)NC(=O)[C@H](Cc2ccccc2)NC(=O)[C@@H](NC(=O)[C@H](CCCCN)NC(=O)[C@@H]2CCCN2C(=O)[C@H](CO)NC(=O)[C@H](C)NC(=O)[C@@H](N)Cc2ccc(O)cc2)CSSC[C@@H](C(=O)N[C@H](C(N)=O)[C@@H](C)O)NC(=O)[C@H](C)NC1=O | Alpha-2-HS-glycoprotein, asialo (AHSG, Bos taurus, UniProt P12763) | isothermal titration calorimetry |  | concentration not given, pH 7.0, 25 °C, added: asialofetuin |  | binding stoichiometry | 0.129
Nc1ncnc2c1ncn2[C@@H]1O[C@H](COP(=O)(O)O)[C@@H](OP(=O)(O)O)[C@H]1O | Thermonuclease (nuc, Staphylococcus aureus, UniProt P00644) | folding kinetics |  | pH 7.0, 22 °C, added: 2.7 M urea |  | ligand concentration at rate minimum | ~20 µM
C=C(CN(C(=O)c1c(C(F)F)nn(C)c1F)C1CC1)c1ccc(Cl)cc1Cl | SDHD/SDHC/SDHB (Sus scrofa, UniProt A5GZW8+D0VWV4+Q007T0) | enzyme activity, inhibitor, DCIP reduction | pig | 0.06 µM, added: DCIP 120 µM |  | reaction velocity | 0.0271 µM/s and 0.0259 µM/s and 0.0258 µM/s
COc1ccc(Nc2nn3c(-c4ccccc4)ccnc3c2C(=O)Nc2ccccc2)cc1 | α-glucosidase | SDS-PAGE, item: 1 kDa band |  | 1 mg/mL |  | decrease in band quantity | 40.5%
CSc1scc2c1-c1nc(SCC(=O)C(C)(C)C)ncc1CC2 | Dual specificity protein phosphatase 10, catalytic domain (Homo sapiens, UniProt Q9Y6W6) | X-ray co-crystal structure |  | concentration not given | baseline: apo MKP5 | active site volume change | ~17%
COc1ccc(N2C(=O)N(c3c(C)cccc3Cl)Cc3cnc(Nc4ccc(C5CCN(C)CC5)cc4OC)nc32)nc1 | PRKCA (Homo sapiens, UniProt P17252) | kinase activity, inhibitor |  | 0.5 µM, kinase PKC-ALPHA |  | inhibition | 3%
COc1cc(N)c(Cl)cc1C(=O)NC1CN2CCC1CC2 (centres unmarked) | G-protein coupled receptor 62 (GPR62, Homo sapiens, UniProt Q9BZJ7) | β-arrestin recruitment, TANGO luminescence, item: GPR62 |  | concentration not given | baseline: basal luminescence | log2 fold change | 0.172
CO/N=C(\C(=O)N[C@@H]1C(=O)N2C(C(=O)O)=C(CSc3nc(=O)c(=O)[nH]n3C)CS[C@H]12)c1csc(N)n1 | Penicillin-binding protein 2a (pbp2a, Streptococcus pneumoniae, UniProt Q8DNB6) | inhibitor |  |  |  | kinact/KI | 610 ± 280 M⁻¹ s⁻¹

Some of these lines once more:
Compound | target | assay | system | conditions | how to read | endpoint | result
COc1ccc(Nc2nn3c(-c4ccccc4)ccnc3c2C(=O)Nc2ccccc2)cc1 | α-glucosidase | SDS-PAGE, item: 1 kDa band |  | 1 mg/mL |  | decrease in band quantity | 40.5%
CN(C(=O)n1cnc(-c2ccc[n+]([O-])c2)c1)C1CCCCC1 | Faah (Mus musculus, UniProt O08914) | enzyme activity, inhibitor, ex vivo | rat, brain | oral, 8 h |  | ED50 | 13.5 mg/kg
Nc1ncnc2c1ncn2[C@@H]1O[C@H](COP(=O)(O)O)[C@@H](OP(=O)(O)O)[C@H]1O | Thermonuclease (nuc, Staphylococcus aureus, UniProt P00644) | folding kinetics |  | pH 7.0, 22 °C, added: 2.7 M urea |  | ligand concentration at rate minimum | ~20 µM
O=C(Nc1nncs1)C(F)(F)Cl | MAPK8 (Homo sapiens, UniProt P45983) | binding, isothermal titration calorimetry |  |  |  | ligand efficiency | 0.44
